Measurements pooled from the literature.
Parts stem from different laboratories: compare values within a part only. Substitutions count along the parent as printed.

Series 1
Target: Mu-type opioid receptor (OPRM1, Homo sapiens, UniProt P35372)
Sequence of UniProt P35372 (whole entry, looked up): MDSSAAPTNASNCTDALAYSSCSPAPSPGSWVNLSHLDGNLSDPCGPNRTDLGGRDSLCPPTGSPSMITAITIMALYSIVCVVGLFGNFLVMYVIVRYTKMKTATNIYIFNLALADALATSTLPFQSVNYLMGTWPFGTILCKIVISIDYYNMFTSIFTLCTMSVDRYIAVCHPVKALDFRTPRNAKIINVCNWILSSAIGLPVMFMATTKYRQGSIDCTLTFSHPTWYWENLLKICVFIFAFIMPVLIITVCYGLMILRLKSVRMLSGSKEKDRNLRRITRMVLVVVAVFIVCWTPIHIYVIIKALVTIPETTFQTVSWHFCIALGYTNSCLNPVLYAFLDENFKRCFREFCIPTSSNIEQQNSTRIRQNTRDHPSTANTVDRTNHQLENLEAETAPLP
Observed: ligand displacement
Concentration: 10 µM
Measurement: inhibition
Cn1cc(Cl)c2c(Oc3c(F)cc(Nc4cc(Cl)nc(N)n4)cc3F)ccnc21: -9.98%
Cc1c(N2CCNCC2)nc2ccc(Br)cc2c1C(=O)NC[C@H](CCC(=O)O)c1ccccc1Cl: 40.9%
CNC(=O)Nc1ccc2c(c1)CC[C@]21OC(=O)N(CC(=O)N(Cc2ccc(F)cc2)[C@@H](C)C(F)(F)F)C1=O: -13.3%
COc1cc(-c2cn(C3CCc4c(F)cccc4N(CC(F)(F)F)C3=O)nn2)ccc1-n1cnc(C)c1 (stereo not shown): 30.2%
c1ccc(C2CCN(c3cnc4c(N5CCOCC5)nccn34)CC2)cc1: 19.6%
CNC(=N)NCCC[C@H](NC(=O)[C@H](CC(C)C)NC(=O)NNC(=O)[C@H](Cc1ccccc1)NC(=O)[C@H](CO)NC(=O)[C@H](CC(N)=O)NC(=O)[C@@H](Cc1ccncc1)NC(=O)[C@H](N)Cc1ccc(O)cc1)C(=O)N[C@@H](Cc1ccccc1)C(N)=O: -4.62%
Cc1ccccc1Oc1cc(-n2c(=O)cc(C(F)(F)F)[nH]c2=O)c2ccccc2c1Cl: 20.9%
COc1cc(C(=O)O)ncc1C#Cc1ccccc1NS(=O)(=O)c1cccc2c(N(C)C)ccnc12: 35.4%
Nc1nc(NCc2ccccc2)nc(-c2ccccc2CO)n1: 11.9%
COc1cccc(NC(=O)c2nc3scc(CN(C)Cc4ccccc4)c3c(=O)[nH]2)c1: 2.84%
Cc1ccc(-c2cnc([C@@]3(O)CC[C@H](C(=O)O)C(C)(C)C3)s2)cc1Nc1cccc(C(F)(F)F)n1: 8.33%
CS(=O)(=O)N1CCCC(NC(=O)[C@H](CCC2CCCCC2)NC(=O)c2ccc(CNC(=O)c3cnc4ccccn34)cc2)C1 (stereo partly shown): 45.3%
C[C@H](c1ccc(F)cc1)N(Cc1cccc(C(=O)O)c1)C(=O)c1cnc2ccccc2c1: 1.23%
CN(C)CC#Cc1ccc(OCCCc2sc(N3CCc4cccc(C(=O)Nc5nc6ccccc6s5)c4C3)nc2C(=O)O)c(F)c1: 15.4%
O=C(Nc1ccc(Oc2ccc(F)cc2)cc1)N1CCc2ncccc2[C@H]1c1ccc(F)cc1: 37.1%

Series 2
Target: Calcium/calmodulin-dependent protein kinase type II subunit alpha (CAMK2A, Homo sapiens, UniProt Q9UQM7)
Sequence of UniProt Q9UQM7 (whole entry, looked up): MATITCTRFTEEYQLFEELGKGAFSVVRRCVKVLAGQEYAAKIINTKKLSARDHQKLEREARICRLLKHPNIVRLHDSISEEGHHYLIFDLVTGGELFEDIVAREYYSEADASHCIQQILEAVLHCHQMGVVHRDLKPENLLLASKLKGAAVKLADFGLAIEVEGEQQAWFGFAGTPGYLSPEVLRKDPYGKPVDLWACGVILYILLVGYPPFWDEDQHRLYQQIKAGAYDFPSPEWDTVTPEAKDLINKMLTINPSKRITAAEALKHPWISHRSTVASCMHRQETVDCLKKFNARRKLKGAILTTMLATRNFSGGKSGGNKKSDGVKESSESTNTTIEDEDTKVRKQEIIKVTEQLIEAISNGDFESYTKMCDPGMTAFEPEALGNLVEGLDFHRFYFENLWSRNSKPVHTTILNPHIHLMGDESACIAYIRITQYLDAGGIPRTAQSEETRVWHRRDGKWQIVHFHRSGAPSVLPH
Observed: enzyme activity
Action: inhibitor
Concentration: 10 µM
Measurement: inhibition
COc1cc2c3c(c1OC)-c1ccccc1C[C@H]3N(C)CC2: 49%
CCCCCc1cc(O)cc(O)c1: -39%
C[C@H]1CCC/C=C/[C@@H]2C[C@H](O)C[C@H]2[C@H](O)/C=C/C(=O)O1: 18%

Series 3
Cell line: mouse MPNST tumor cells
Method: high-content immunofluorescence imaging
Measured: nuclear SOX9
Concentration: 10 µM
Time: 12 h
Notes: mean of 2 replicates
Relative to: DMSO control
Reading: higher = more nuclear SOX9
Measurement: nuclear SOX9 intensity
CN(C)C(=O)Oc1cccc([N+](C)(C)C)c1: 101 % of DMSO
CCP(=O)(O)CCCN: 102 % of DMSO
O=c1[nH]c2ccccc2n1CCCN1CCC(n2c(=O)[nH]c3cc(Cl)ccc32)CC1: 104 % of DMSO

Series 4
Target: CCNF, cyclin fold, Cln2 fusion (human)
Method: yeast growth competition, sequencing
Medium: yeast
Notes: strong parent motif
Relative to: not given
Reading: higher = stronger binding
Measurement: normalised enrichment score
Starting sequence: viral docking peptide; YKVKRRLVFGADD
YKVKRRKVFGADD [L7K]: 0.961
YKVKRRLVFGASD [D12S]: 8.92
YKVSRRLVFGADD [K4S]: 8.63
YKVKRRLVTGADD [F9T]: 3.47
YKVKRRLVFCADD [G10C]: 8.79
YKVKRRLVFGKDD [A11K]: 8.72
YKVKRRLIFGADD [V8I]: 8.8
YKVKMRLVFGADD [R5M]: 4.35

Series 5
Organism: Sarcocystis neurona
Observed: parasite growth
Concentration: 10 µM
Notes: second screen
Relative to: untreated
Measurement: log2 fold change
CNC(=O)Oc1ccc2c(c1)[C@]1(C)CCN(C)[C@@H]1N2C.CNC(=O)Oc1ccc2c(c1)[C@]1(C)CCN(C)[C@@H]1N2C.O=S(=O)(O)O: 0.69
COc1ccc2[nH]cc(CCN)c2c1: 0.41
CCCCC/C=C\C/C=C\C/C=C\C/C=C\CCCC(=O)Nc1ccc(O)cc1: 0.04

Series 6
Target: Beta-1 adrenergic receptor (ADRB1, Homo sapiens, UniProt P08588)
Sequence of UniProt P08588 (whole entry, looked up): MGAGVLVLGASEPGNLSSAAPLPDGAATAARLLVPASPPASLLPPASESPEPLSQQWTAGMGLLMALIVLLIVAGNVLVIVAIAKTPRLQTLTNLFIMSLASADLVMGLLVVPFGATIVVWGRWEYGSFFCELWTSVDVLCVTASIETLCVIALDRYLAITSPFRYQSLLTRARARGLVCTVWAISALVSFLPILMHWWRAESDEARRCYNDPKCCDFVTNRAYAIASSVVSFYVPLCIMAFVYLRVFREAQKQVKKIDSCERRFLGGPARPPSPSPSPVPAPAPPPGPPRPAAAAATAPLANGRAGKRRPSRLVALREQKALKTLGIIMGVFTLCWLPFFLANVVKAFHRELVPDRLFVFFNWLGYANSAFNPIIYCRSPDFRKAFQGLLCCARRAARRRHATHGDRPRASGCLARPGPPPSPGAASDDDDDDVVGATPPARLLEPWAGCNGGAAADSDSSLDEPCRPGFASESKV
Action: antagonist
Measurement: IC50
CN1C[C@@H](CO)C=C2c3cccc4[nH]cc(c34)C[C@@H]21: ≥ 100 µM
CCCN(CCC)[C@H]1CCc2c(O)cccc2C1: ≥ 100 µM
NCCc1c[nH]c2ccc(O)cc12: ≥ 100 µM

Other studies, line by line
Species: human
Medium: microsomes or S9
Concentration: 2 µM
Time: 0.5 h
CC(=O)Nc1cccc(C2(C)C(=O)N(C)C(=O)N(C)C2=O)c1 — remaining compound: > 99%
COc1cc(/C=C2\C(=O)N=C(O)N=C2O)ccc1OCc1ccc(Cl)cc1 — remaining compound: 94.4%
